{"data": "Experimental data pooled from the literature", "note": "A part holds a random share of what one study measured."}
{"data": "Series 1", "target": "Sal-like protein 4, full length isoform B (SALL4, Homo sapiens, UniProt Q9UJQ4-2, residues 1-616)", "technique": "universal PBM", "molecule type": "double-stranded DNA, one strand shown", "sample": "in vitro", "concentration": "not given", "notes": "8-mer, flanks averaged, mean of replicates", "reading": "higher = stronger binding", "Target sequence (chain)": "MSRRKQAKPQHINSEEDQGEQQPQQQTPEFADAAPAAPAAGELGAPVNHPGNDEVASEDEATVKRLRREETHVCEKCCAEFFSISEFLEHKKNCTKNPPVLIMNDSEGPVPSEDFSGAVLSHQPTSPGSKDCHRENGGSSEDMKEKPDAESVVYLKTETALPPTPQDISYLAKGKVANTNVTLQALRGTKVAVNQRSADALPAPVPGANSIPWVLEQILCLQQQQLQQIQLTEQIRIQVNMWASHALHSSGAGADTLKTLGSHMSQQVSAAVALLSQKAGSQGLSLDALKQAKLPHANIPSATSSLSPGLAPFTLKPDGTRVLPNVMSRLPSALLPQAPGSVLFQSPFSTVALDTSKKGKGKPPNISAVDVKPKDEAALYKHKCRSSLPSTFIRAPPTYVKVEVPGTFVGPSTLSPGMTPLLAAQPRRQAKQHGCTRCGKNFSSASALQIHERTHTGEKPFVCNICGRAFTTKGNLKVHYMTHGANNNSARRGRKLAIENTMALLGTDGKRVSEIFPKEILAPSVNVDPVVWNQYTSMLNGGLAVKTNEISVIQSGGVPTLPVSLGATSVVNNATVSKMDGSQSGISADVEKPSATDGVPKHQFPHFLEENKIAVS"}
{"Sequence": "AGCTGAAT", "E-score": -0.0303}
{"Sequence": "AGACACCT", "E-score": -0.0685}
{"Sequence": "GGGTAAAA", "E-score": 0.0738}
{"Sequence": "CTACGTAC", "E-score": 0.127}
{"Sequence": "AAAAGCTA", "E-score": 0.121}
{"Sequence": "GAAATACA", "E-score": 0.221}
{"Sequence": "CATAAGAG", "E-score": 0.169}
{"Sequence": "CTCTGCAG", "E-score": -0.188}
{"Sequence": "GACAGGTC", "E-score": -0.207}
{"Sequence": "ACGAGCCG", "E-score": -0.229}
{"Sequence": "CAAGGTGA", "E-score": -0.19}
{"Sequence": "CAGAACCA", "E-score": -0.128}
{"Sequence": "GGCACTTA", "E-score": -0.0672}
{"Sequence": "CTAGAAGC", "E-score": -0.218}
{"Sequence": "AGAGTAGG", "E-score": 0.0977}
{"Sequence": "TCAGGAAA", "E-score": 0.0225}
{"Sequence": "TGCTATAA", "E-score": 0.195}
{"Sequence": "CTGCTGGC", "E-score": -0.332}
{"Sequence": "AACCAGGC", "E-score": -0.157}
{"Sequence": "TCCTTCGA", "E-score": -0.122}
{"Sequence": "AAAATTTC", "E-score": 0.18}
{"Sequence": "GGACAGCC", "E-score": -0.355}
{"data": "Series 2", "target": "RNA binding protein fox-1 homolog 2, RRM domain, GST-SBP tag (RBFOX2, Homo sapiens, UniProt O43251-10, residues 100-194)", "technique": "RNA Bind-n-Seq", "molecule type": "RNA", "sample": "in vitro", "concentration": "365 nM", "notes": "natural RNA segment, single round, ends assumed", "baseline": "no-protein control", "reading": "higher = stronger binding", "shared flanks, not repeated": "GGGAGUUCUACAGUCCGACGAUC … UGGAAUUCUCGGGUGCCAA", "Target sequence (chain)": "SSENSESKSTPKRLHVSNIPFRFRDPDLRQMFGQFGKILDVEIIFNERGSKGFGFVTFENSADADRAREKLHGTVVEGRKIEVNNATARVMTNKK"}
{"Sequence": "CCUUUGGUGGUAUCCAUAUAGGAUGCUAGCCUGCCUUGUAGUAAUGUUUUAUAUGUUAAAAACAAAAUAAAGACAUCAACCAUUUCACAUAUAUUCUACUACUAAAGGUA", "RBNS enrichment (R)": 0.408}
{"Sequence": "UUACAAACUCAAGAAAAACAGACUCACUUGAAAAAAUGGAUGCCAGUCACCUGGUUCCCACUACUGUCGUAGCAGAUAGCGAAGGGACAAUCUGAGACUUGUAGAGAUGA", "RBNS enrichment (R)": 0.383}
{"Sequence": "UGGAUCCAGGCUGUACAUUGAAUAAAAAGAUUCGAAAUGCACAGUUAGCACAGUAUAACUUCAUUUUAGGUGUUGGUGAAAAAGAGAAAAUCAGUGGCACUGUUAAUAUC", "RBNS enrichment (R)": 0.767}
{"Sequence": "CCUGGCCGAUUGGUGCUCCUUCUACACUCAUACCUCUACCUCUCACUGGGGCCAGCAGGAGUUGGGAACCCCUCUGAGGUGAUUUGCCUGAGCAUGGGGUUCCGGCUGUC", "RBNS enrichment (R)": 0.521}
{"Sequence": "UACUCUAGCCUGGGCCAGAGAAGAUAAUGUUCUUUAAUGUUGUCCAGGAAACCCUGGCUUGCUUGCCGAGCCUAAUGAAAGGGAAAGUCAGCUUUCAGAGCCAGUGAAGG", "RBNS enrichment (R)": 0.312}
{"Sequence": "AUUUUGUCCUUUCUUCUCAUACUAAAGUGGAUCAUAGAAAAGUAAAAUAAAUUAUUUGAAAAAUGAAUCCUUAUGUCCUUCCCAUUAUUAUAGAGAAAAAUAGAAAGAUA", "RBNS enrichment (R)": 0.489}
{"Sequence": "UUACAUAAUUUAAUACAGAUUGAUGUUAAUACUUGUGUAUUUACAUAACCAUUUCCUUCUUGUCACUGAAAUAUAUGGACCUGAAUUUGUAUCCUGACUGAUUCAACCCA", "RBNS enrichment (R)": 0.388}
{"Sequence": "UGCUGGUGAUUUAACCAGUGCUUGGAAAAAUCUUGCUUGGCUAUUUCUGCAUCAUUUCUUAAGGCUGCCUUCCUCUCUCAGUACGUUGCCCUCUGUGCUAUCAUCUUAUC", "RBNS enrichment (R)": 1.13}
{"data": "Series 3", "target": "Hepatocyte nuclear factor 3-beta, forkhead domain (FOXA2, Homo sapiens, UniProt Q9Y261, residues 142-269)", "technique": "protein-binding microarray", "molecule type": "double-stranded DNA, one strand shown", "sample": "in vitro", "concentration": "not given", "notes": "k-mer, scored over probes, only values ≥0.25", "reading": "higher = stronger binding", "Construct (chain)": "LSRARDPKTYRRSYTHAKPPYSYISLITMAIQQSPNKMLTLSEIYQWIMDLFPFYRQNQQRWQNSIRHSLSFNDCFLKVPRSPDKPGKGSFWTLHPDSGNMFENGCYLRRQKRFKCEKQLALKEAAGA"}
{"Sequence": "ATAAACAC", "E-score": 0.269}
{"Sequence": "AATATATC", "E-score": 0.339}
{"Sequence": "GTTTGCGA", "E-score": 0.252}
{"Sequence": "TAATAAAA", "E-score": 0.277}
{"Sequence": "CCCAAACA", "E-score": 0.299}
{"Sequence": "ATACACAA", "E-score": 0.399}
{"Sequence": "ATATAAAC", "E-score": 0.378}
{"Sequence": "ATACTAGA", "E-score": 0.333}
{"Sequence": "ACATAACA", "E-score": 0.309}
{"Sequence": "TACATGTA", "E-score": 0.344}
{"Sequence": "AATATATT", "E-score": 0.31}
{"Sequence": "CATTTATC", "E-score": 0.301}
{"Sequence": "ATACCCAT", "E-score": 0.26}
{"Sequence": "GCTATACA", "E-score": 0.284}
{"Sequence": "AACGTTAA", "E-score": 0.275}
{"Sequence": "ATAACTTA", "E-score": 0.272}
{"data": "Series 4", "target": "RING finger protein unkempt homolog, zinc fingers 1-6, GST-SBP tag (UNK, Homo sapiens, UniProt Q9C0B0, residues 30-357)", "technique": "RNA Bind-n-Seq", "molecule type": "RNA", "sample": "in vitro", "concentration": "not given", "notes": "RNA with constant flanks, human-mouse chimeric sites, ends assumed", "baseline": "input RNA pool", "reading": "higher = stronger binding", "shared flanks, not repeated": "GGGAGUUCUACAGUCCGACGAUC … CAACAGAGGAUUGAGCAUCA", "Residues (chain)": "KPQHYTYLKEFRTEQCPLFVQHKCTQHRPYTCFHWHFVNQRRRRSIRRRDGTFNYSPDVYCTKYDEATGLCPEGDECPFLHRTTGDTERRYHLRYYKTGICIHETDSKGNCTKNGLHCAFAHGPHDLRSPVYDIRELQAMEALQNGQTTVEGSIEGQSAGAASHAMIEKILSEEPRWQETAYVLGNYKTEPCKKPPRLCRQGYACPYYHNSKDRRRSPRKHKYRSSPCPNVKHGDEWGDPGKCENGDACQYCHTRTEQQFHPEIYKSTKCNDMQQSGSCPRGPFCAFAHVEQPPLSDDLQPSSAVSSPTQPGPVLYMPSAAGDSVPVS"}
{"Sequence": "CUGAAAAACACAGAUAUCAAAGUUGUUGACUUUGGAAGUGCAACGUAUGACGACGAACAUCACAGUACUUUGGUGUCCACAAGGCACUACAGAGCUCCCGAGGUCAUUUUGGCUUUAGGU", "bound/input enrichment [ratio]": 0.143}
{"Sequence": "UACUCAACUUUCUUGCCACAUUUUGAAUUCCAAGACAUUAUUCCUCCAGAUGACUUCCUAACUAGUGAUGAAGAGCAAGAUUUGGUUUUAUUUGGAACUAUGAGAGGACAAGUUGUUGGA", "bound/input enrichment [ratio]": 0.34}
{"Sequence": "UUGCUACUGACUCCCUGGGUUAAAUUCCUGUGGGAAUCAUACAGGCAGUGUUUGGACCUUCUUCGAAACAAUUCUAGAGUAGAGCGCCUUUACCAUGAUAUCGCCCAGCAAGCUUUCAAA", "bound/input enrichment [ratio]": 0.216}
{"Sequence": "CAGCGCCGAGGCCGCGGUUUCCCCCUGGGUGUGCUGAGCAGCAGCCAUGGGCAUCAAAUUUUUAGAAGUUAUCAAACCAUUCUGUGCAGUUCUACCAGAAAUUCAGAAACCGGAAAGGAA", "bound/input enrichment [ratio]": 1.44}
{"Sequence": "ACAGUUAUAUUGUUGAGGUUUGUAUUUAUAUAUUCUUGUAGUGUCUGCUUGCCUGUGACUUCUGGUAAAAUAAAAUAAGCCUUUGAAAAUAUUUUAGCAUGGUAUUUAACAUUUUCUAAA", "bound/input enrichment [ratio]": 1.94}
{"Sequence": "AAAGUGAUGACUAUGUUUGUCCAACGACAGGUAUUUUCUGAGAACAAAGAUGAGAUUGCGUUAGUCCUGUUUGGUACAGAUGGCACUGAUAAUGCCCUUGCUGGCAAGGACCAGUAUCAG", "bound/input enrichment [ratio]": 0.0832}
{"Sequence": "AUAGAUGAAAUUGAUGUGGACCAGGAAGGAAUUGCUGAAAUGAUCCUGGAUGAAAAUGCUAUUGCUCAGGUCCCACGCCCUGGCACAUCUUUGAAACUCCCUGGCACUAAUCAGACAGGA", "bound/input enrichment [ratio]": 0.397}
{"Sequence": "CAGCGCCGAGGCCGCGGUUUCCCCCUGGGCCUCCCCAGCCGCCGCCAUGGGCAUCAAAUUUUUAGAAGUUAUCAAACCUUUCUGUGCAGUUCUACCAGAAAUUCAGAAACCGGAAAGGAA", "bound/input enrichment [ratio]": 1.75}
{"data": "Series 5", "target": "Histone acetyltransferase KAT6A, winged helix 2, GST fusion (KAT6A, Homo sapiens, UniProt Q92794, residues 85-181)", "technique": "protein binding microarray", "molecule type": "double-stranded DNA, one strand shown", "sample": "in vitro", "concentration": "not given", "notes": "8-mer, flanks averaged, mean of 2 arrays, mostly near background", "baseline": "not given", "reading": "higher = stronger binding", "Construct (chain)": "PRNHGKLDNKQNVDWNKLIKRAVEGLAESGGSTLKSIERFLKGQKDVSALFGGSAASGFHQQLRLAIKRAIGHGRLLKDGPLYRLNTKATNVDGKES"}
{"Sequence": "CGGCTAAA", "E-score": 0.16}
{"Sequence": "AGTTGACG", "E-score": -0.0532}
{"Sequence": "CAGTAGCG", "E-score": 0.0993}
{"Sequence": "CTAAGACA", "E-score": -0.053}
{"Sequence": "ATCCCCAG", "E-score": -0.222}
{"Sequence": "CCAGCGGA", "E-score": 0.0231}
{"Sequence": "CACGGATG", "E-score": 0.0405}
{"Sequence": "CGATAGCG", "E-score": -0.0641}
{"Sequence": "GACGCAGC", "E-score": 0.0991}
{"Sequence": "GCTTTTTA", "E-score": 0.111}
{"Sequence": "GGGAATAC", "E-score": -0.0375}
{"Sequence": "ACTGTCGG", "E-score": -0.0309}
{"Sequence": "CATCGTCA", "E-score": 0.114}
{"Sequence": "ATCACACC", "E-score": 0.057}
{"Sequence": "AGTCAAAT", "E-score": -0.0619}
{"Sequence": "ATGCTCCC", "E-score": -0.099}
{"Sequence": "CCTCGAGC", "E-score": 0.106}
{"Sequence": "AACAGTCC", "E-score": -0.188}
{"Sequence": "GCAAACCC", "E-score": 0.101}
{"Sequence": "ACAGAGAG", "E-score": -0.0373}
{"Sequence": "AACTAGGT", "E-score": 0.00538}
{"Sequence": "GCGACTAA", "E-score": 0.05}
{"Sequence": "GCAGATAA", "E-score": 0.102}
{"note": "Excerpt of the above (series 5):"}
{"Sequence": "ACAGAGAG", "E-score": -0.0373}
{"Sequence": "CAGTAGCG", "E-score": 0.0993}
{"Sequence": "GGGAATAC", "E-score": -0.0375}
{"Sequence": "GACGCAGC", "E-score": 0.0991}
{"Sequence": "ATCCCCAG", "E-score": -0.222}
{"Sequence": "ACTGTCGG", "E-score": -0.0309}
{"Sequence": "CGGCTAAA", "E-score": 0.16}
{"Sequence": "GCTTTTTA", "E-score": 0.111}
{"Sequence": "AGTTGACG", "E-score": -0.0532}
{"Sequence": "CACGGATG", "E-score": 0.0405}
{"Sequence": "ATGCTCCC", "E-score": -0.099}
{"Sequence": "CCAGCGGA", "E-score": 0.0231}
